Measured values of several laboratories.
“And” joins repeats or separate records; there may be more than shown. ± gives the spread as reported.
HLA class I histocompatibility antigen, A alpha chain allele A*24:02: HLA class I histocompatibility antigen, A alpha chain, allele A*24:02 (Homo sapiens, UniProt P04439)
Sequence of UniProt P63096 (whole entry, looked up): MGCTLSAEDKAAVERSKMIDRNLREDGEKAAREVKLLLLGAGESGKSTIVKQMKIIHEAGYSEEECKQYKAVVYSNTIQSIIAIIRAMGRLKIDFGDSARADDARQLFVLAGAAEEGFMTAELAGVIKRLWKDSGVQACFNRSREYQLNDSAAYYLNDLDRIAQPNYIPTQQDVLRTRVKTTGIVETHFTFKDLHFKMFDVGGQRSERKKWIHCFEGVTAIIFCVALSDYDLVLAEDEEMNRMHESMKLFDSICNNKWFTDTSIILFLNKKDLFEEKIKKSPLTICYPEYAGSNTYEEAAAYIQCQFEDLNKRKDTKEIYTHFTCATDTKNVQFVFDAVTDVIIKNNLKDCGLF
Sequence of UniProt P35372 (whole entry, looked up): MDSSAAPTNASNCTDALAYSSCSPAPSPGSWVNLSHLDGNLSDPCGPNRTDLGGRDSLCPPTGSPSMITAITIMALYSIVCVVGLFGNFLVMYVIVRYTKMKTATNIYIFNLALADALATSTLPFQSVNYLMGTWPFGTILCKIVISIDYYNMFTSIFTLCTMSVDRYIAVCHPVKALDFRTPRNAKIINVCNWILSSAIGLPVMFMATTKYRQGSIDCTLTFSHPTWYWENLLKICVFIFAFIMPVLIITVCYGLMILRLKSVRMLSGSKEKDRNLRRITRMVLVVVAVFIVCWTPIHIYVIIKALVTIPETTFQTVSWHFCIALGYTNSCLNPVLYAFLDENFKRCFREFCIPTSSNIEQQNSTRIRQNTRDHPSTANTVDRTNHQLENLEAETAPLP
Sequence of UniProt P42866 (whole entry, looked up): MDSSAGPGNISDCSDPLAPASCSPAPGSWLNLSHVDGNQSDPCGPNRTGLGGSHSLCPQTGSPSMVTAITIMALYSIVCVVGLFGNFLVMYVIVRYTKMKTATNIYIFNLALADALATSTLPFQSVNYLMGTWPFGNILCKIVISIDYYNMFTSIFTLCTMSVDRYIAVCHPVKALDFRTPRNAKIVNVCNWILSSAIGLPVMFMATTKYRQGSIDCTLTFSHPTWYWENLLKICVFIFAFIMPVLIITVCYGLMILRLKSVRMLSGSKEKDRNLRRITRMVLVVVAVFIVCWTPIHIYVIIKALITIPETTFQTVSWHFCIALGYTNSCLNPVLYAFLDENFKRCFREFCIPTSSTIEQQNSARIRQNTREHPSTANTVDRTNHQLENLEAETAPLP
Sequence of UniProt O15244 (whole entry, looked up): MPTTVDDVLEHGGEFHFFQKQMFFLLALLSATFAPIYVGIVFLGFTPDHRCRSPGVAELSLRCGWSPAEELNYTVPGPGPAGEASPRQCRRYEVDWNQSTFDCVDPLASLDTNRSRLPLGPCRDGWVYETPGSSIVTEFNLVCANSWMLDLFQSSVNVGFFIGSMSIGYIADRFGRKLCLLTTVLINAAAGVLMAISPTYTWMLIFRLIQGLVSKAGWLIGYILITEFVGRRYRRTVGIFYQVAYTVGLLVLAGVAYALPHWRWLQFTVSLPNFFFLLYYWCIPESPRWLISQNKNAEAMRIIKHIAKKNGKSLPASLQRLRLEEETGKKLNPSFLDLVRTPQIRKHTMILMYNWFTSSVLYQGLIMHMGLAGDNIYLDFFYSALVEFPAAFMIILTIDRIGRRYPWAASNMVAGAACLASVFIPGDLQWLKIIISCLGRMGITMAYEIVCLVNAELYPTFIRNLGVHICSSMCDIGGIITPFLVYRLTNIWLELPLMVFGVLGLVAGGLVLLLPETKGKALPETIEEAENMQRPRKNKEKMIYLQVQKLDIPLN
Sequence of UniProt Q9P0L9 (whole entry, unmodified, looked up): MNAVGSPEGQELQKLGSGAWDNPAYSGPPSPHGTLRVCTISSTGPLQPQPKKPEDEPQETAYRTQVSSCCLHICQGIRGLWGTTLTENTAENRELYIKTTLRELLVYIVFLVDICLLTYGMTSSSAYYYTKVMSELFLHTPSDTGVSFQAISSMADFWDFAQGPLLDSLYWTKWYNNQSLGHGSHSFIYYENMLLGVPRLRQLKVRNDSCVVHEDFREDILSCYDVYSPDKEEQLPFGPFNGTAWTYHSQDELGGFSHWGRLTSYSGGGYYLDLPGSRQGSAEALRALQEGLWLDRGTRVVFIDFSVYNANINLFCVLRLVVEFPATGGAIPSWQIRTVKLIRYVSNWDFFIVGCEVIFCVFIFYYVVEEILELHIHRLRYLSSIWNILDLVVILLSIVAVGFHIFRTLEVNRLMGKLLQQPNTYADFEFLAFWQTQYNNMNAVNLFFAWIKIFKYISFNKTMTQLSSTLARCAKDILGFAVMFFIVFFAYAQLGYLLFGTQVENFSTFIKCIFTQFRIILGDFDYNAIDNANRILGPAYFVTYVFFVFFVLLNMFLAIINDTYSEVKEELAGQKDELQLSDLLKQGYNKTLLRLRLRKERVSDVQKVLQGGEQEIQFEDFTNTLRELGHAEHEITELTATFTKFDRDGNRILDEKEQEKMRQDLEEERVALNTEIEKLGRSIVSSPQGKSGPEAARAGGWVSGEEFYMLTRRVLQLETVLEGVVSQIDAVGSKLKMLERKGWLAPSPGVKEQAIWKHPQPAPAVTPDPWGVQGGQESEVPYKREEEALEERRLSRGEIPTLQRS
Sequence of UniProt P08684 (whole entry, looked up): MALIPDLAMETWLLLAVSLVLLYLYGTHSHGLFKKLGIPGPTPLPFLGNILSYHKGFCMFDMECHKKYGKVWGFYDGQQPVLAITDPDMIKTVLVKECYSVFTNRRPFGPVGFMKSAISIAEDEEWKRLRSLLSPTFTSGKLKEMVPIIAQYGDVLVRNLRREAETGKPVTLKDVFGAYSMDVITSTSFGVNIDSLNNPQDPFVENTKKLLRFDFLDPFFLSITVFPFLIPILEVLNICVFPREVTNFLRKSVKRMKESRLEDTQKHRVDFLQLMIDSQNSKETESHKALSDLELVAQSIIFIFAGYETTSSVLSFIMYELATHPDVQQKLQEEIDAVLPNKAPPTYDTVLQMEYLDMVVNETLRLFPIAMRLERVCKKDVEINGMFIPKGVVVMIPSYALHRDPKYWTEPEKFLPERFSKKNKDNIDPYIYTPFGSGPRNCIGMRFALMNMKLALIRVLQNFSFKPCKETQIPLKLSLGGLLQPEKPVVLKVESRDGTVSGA

| SMILES | target | test | system | conditions | measurement | value |
| --- | --- | --- | --- | --- | --- | --- |
| Nc1nc2c(ncn2[C@@H]2O[C@H](COP(=O)(O)OP(O)(O)=S)[C@@H](O)[C@H]2O)c(=O)[nH]1 | OPRM1/GNAI1 (Homo sapiens, UniProt P35372+P63096) | MOR-Gi coupling | HEK293F | ratio 1:4 | IC50 | 0.0495 µM and 0.044 µM and 0.0524 µM |
| CC[C@H](C)[C@H](NC(=O)[C@@H]1CCCN1C(=O)[C@H](CCCCN)NC(=O)[C@@H]1CCCN1C(=O)[C@H](CCSC)NC(=O)[C@H](CCC(N)=O)NC(=O)[C@@H](N)Cc1ccc(O)cc1)C(=O)N[C@H](C(=O)N[C@@H](Cc1ccccc1)C(=O)O)[C@@H](C)O | HLA class I histocompatibility antigen, A alpha chain allele A*24:02 | binding | – | – | IC50 | 1.77 µM |
| COc1cc(Nc2ncc(F)c(Nc3ccc4c(n3)NC(=O)C(C)(C)O4)n2)cc(OC)c1OC | phosphodiesterase 4 | enzyme activity, inhibitor | – | – | IC50 | > 10 µM |
| CSCC[C@H](NC(=O)[C@@H](N)CCCNC(=N)N)C(=O)N[C@@H](Cc1c[nH]c2ccccc12)C(=O)N[C@@H](CO)C(=O)N[C@@H](CCCCN)C(=O)N1CCC[C@H]1C(=O)N[C@@H](CC(C)C)C(=O)N[C@@H](CCC(N)=O)C(=O)N[C@@H](Cc1ccccc1)C(=O)O | HLA class I histocompatibility antigen, A alpha chain allele A*24:02 | binding | – | – | IC50 | 0.896 µM |
| N#Cc1ccc(Nc2nc(N)cc(Oc3c(F)cc(-c4ccc(C#N)cc4)cc3F)n2)cc1 | Cytochrome P450 3A4 (CYP3A4, Homo sapiens, UniProt P08684) | – | human liver microsomes | added: testosterone | IC50 | > 50 µM |
| COc1ccc2cc1Oc1ccc(cc1)C[C@H]1c3cc(c(OC)cc3CCN1C)Oc1c(OC)c(OC)cc3c1[C@H](C2)N(C)CC3 | PKD2L1 (Homo sapiens, UniProt Q9P0L9, F514A) | ion current | – | – | IC50 | 2.1 µM |
| CSCC[C@H](NC(=O)[C@@H](N)Cc1ccc(O)cc1)C(=O)N[C@@H](Cc1ccc(O)cc1)C(=O)N[C@H](C(=O)N[C@@H](CCCCN)C(=O)N[C@@H](Cc1ccccc1)C(=O)N[C@@H](Cc1c[nH]cn1)C(=O)N[C@H](C(=O)N[C@@H](Cc1ccc(O)cc1)C(=O)O)[C@@H](C)O)[C@@H](C)O | HLA class I histocompatibility antigen, A alpha chain, allele A*02:01 (Homo sapiens, UniProt P04439) | binding | – | – | IC50 | 15 µM |
| COc1ccc2c3c1OC1C(NC(=O)c4cccc(I)c4)CCC4C(C2)N(CC2CC2)CCC341 (stereo not drawn) | Mu-type opioid receptor (Oprm1, Mus musculus, UniProt P42866) | – | – | – | EC50 | 0.0624 ± 0.0318 µM |
| CNC(C)Cc1ccc2c(c1)OCO2 (stereo not drawn) | Solute carrier family 22 member 2 (SLC22A2, Homo sapiens, UniProt O15244) | – | – | – | IC50 | 10.2 ± 4.6 µM |

Excerpt of the above:
| SMILES | target | test | system | conditions | measurement | value |
| --- | --- | --- | --- | --- | --- | --- |
| CSCC[C@H](NC(=O)[C@@H](N)Cc1ccc(O)cc1)C(=O)N[C@@H](Cc1ccc(O)cc1)C(=O)N[C@H](C(=O)N[C@@H](CCCCN)C(=O)N[C@@H](Cc1ccccc1)C(=O)N[C@@H](Cc1c[nH]cn1)C(=O)N[C@H](C(=O)N[C@@H](Cc1ccc(O)cc1)C(=O)O)[C@@H](C)O)[C@@H](C)O | HLA class I histocompatibility antigen, A alpha chain, allele A*02:01 (Homo sapiens, UniProt P04439) | binding | – | – | IC50 | 15 µM |
